# Measurements collected from several papers.
# A part holds a random share of what one study measured. Changes are numbered by the printed parent chain.

# Study 1 — technique: DHFR PCA, deep sequencing; medium: yeast; with: (+)-ABA 200 µM; relative to: wild-type fitted maximum; reading: higher = stronger binding
# Target: ABI1, truncated, D143A, DHFR fusion (Arabidopsis thaliana)
# Setting: methotrexate growth selection, single substitutions
# Starting sequence: PYL1, truncated, DHFR fusion (Arabidopsis thaliana); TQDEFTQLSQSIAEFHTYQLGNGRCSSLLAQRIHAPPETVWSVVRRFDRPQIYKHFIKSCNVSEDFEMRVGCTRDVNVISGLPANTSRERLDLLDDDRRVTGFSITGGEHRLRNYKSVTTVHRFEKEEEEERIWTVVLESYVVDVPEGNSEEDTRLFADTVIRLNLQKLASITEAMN
Substitution,relative binding score [%]
R163V,49.8
R49E,100
S171F,89.1
L112C,58.8
E4D,97.3
F5G,88.5
L94Y,100
E14C,80.7
S59M,79.5
V145K,65.6
N22Q,95.9
R88L,101
G102C,63.2
D92E,92.2
R99P,11.7
I12K,79.9
N77Q,110
R90I,85.5

# Study 2 — target: UBE2E2 UBC core domain (UniProt Q96LR5); technique: yeast two-hybrid; medium: yeast; setting: mostly zero background; relative to: not given; reading: higher = stronger interaction
# Sequence of UniProt Q96LR5 (whole entry, looked up): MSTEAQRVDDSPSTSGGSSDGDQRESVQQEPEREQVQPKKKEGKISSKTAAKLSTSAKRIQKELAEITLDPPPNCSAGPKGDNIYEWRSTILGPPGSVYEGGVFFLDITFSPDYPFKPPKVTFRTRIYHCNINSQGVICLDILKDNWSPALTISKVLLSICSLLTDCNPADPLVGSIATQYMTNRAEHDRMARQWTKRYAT
# B1: ZNF598 RING domain (UniProt Q86UK7); chain AAAPERGGGSCVLCCGDLEATALGRCDHPVCYRCSTKMRVLCEQRYCAVCREELRQVVFGK
# B2: CUL9 RING domain (UniProt Q8IWT3); chain AQAVPVRPDHCPVCVSPLGCDDDLPSLCCMHYCCKSCWNEYLTTRIEQNLVLNCTCPIADCPAQPTGAFIR
# B3: UHRF2 RING domain (UniProt Q96PU4); chain CGGDPEKKCHSCSCRVCGGKHEPNMQLLCDECNVAYHIYCLNPPLDKVPEEEYWYCPSCKTDSSEVVKAGER
# B4: RC3H2 RING domain (UniProt Q9HBD1); chain QAAQWTEFLSCPICYNEFDENVHKPISLGCSHTVCKTCLNKLHRKACPFDQTAINTDIDVL
# B5: TRIM63 RING domain (UniProt Q969Q1); chain PMENLEKQLICPICLEMFTKPVVILPCQHNLCRKCANDIFQAANPYWTSRGSSVSMSGGRFRCPTCRHEVIMDRHGV
# B6: TRIM72 RING domain (UniProt Q6ZMU5); chain APGLLHQELSCPLCLQLFDAPVTAECGHSFCRACLGRVAGEPAADGTVLCPCCQAPTRPQALST
# B7: MID1 RING domain (UniProt O15344); chain METLESELTCPICLELFEDPLLLPCAHSLCFNCAHRILVSHCATNESVESITAFQCPTCRHVITLSQRGL
# B8: RNF170 RING domain (UniProt Q96K19); chain TRQQFYTDMYCPICLHQASFPVETNCGHLFCGACIIAYWRYGSWLGAISCPICRQTVTLLLTVF
# B9: PHF21A RING domain (UniProt Q96BD5); chain SPTSTDGDIHEDFCSVCRKSGQLLMCDTCSRVYHLDCLDPPLKTIPKGMWICPRCQDQMLKKEEAIPW
Molecule,lacZ reporter activity
B1 (ZNF598 RING domain),0
B2 (CUL9 RING domain),0
B3 (UHRF2 RING domain),0
B4 (RC3H2 RING domain),0
B5 (TRIM63 RING domain),0
B6 (TRIM72 RING domain),0
B7 (MID1 RING domain),0
B8 (RNF170 RING domain),0
FASPPDSNFVCSVCHGVLKRPARLPCSHIFCKKCILRWLARQKTCPCCRKEVKRKKVVH (RNF151 RING domain (UniProt Q2KHN1)),0
EDEVSDNSAECVVCLSDVRDTLILPCRHLCLCNTCADTLRYQANNCPICRLPFRALLQIR (RNF157 RING domain (UniProt Q96PX1)),0
DAIPSLSECQCGICMEILVEPVTLPCNHTLCKPCFQSTVEKASLCCPFCRRRVSSWTRYH (RNF168 RING domain (UniProt Q8IYW5)),0
B9 (PHF21A RING domain),0

# Study 3 — technique: RNA Bind-n-Seq; form: RNA; medium: in vitro; concentration: 200 nM; setting: whole 134-nt RNA, ends assumed; with: 150 mM LiCl; relative to: input library; reading: higher = stronger binding; all molecules: 7-deaza-guanosine replaces G
# Target: Fragile X messenger ribonucleoprotein 1, C-terminal low-complexity region (Fmr1, Mus musculus, UniProt P35922)
Strand,log2 enrichment
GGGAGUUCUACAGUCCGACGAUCUUAAGUGUAUUGGAGCCCCAAGUUCUCAAUUAUUUGAGCCUCCGGGCGACAGAGCAAGAAAAGGUGAGUGGAUAGCGCAGGCAUAUUGGUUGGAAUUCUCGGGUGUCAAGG,-0.801
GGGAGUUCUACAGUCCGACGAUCUCCUGUGCUACACAUCGUAUGUACCGAAUCGGGUUUUUUGGGGUUUUUUGGUUUUUUGGAAAGUAUUAUGUUACGCCGUUCGGAUCUGCAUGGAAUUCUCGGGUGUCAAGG,-0.077
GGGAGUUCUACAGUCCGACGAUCCACAGACAACACGCACCCACACAGACACAGAGGGAAGGGGUUGGGAUGGGGACGGGGUGCACAGCAGGGCGGGGUAGGACCCCAGCCCCUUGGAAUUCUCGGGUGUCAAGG,-0.332
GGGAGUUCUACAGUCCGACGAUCUAAUUAUGUUUUAUUUUCUUUAAUUGCAGGACUUCAUAGACCUCACGUUGUCGAAGACUCAACGAAAGACUCCAACCGUUAUUCAUAAACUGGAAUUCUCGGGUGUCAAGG,-0.0709
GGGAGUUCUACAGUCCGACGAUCUGGCCCUGGUGGCAUGCGGGGAGGAAGAGGUGGCCUCAUGGAUCGUGGUGGUCCCGGUGGAAUGUUCAGAGGCGGCCGUGGUGGAGACAGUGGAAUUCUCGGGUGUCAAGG,-0.578
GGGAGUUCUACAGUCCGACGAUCAAAAUGCAGGUGGGCAUCUUUGGGAAGUGGGGCAAGGGGGGGAUAGGGAGGGGGGUAACACUUUGGGAACAGGUGGUCCCAGGUCGUUUCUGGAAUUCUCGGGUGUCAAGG,1.28
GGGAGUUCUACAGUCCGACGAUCAAGUCCUGUGCUACACAUCGUAUGUACCGAAUCGGUUUUUUUGGAAAAAGGAAAGGAAAGUAUUAUGUUACGCCGUUCGGAUCUGCACUUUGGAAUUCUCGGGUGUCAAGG,-2.75
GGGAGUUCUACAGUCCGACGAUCUGUGGCCGCAGGACGAGUACAUCGUGGAGUACUCACUAGAGUAUGGCUUCCUUCGCCUGUCGCAGGCCACCCGCCAGCGCCUGAGCAUCCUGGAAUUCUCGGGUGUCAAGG,0.59
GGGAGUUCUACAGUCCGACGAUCCCUGUGCUACACAUCGUAUGUACCGAAUCGGUUUUUUUGGGUUUUUUUGGGUUUUUUUGGAAAGUAUUAUGUUACGCCGUUCGGAUCUGCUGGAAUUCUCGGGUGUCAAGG,0.149
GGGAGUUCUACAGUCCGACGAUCCUUUGUAAUGGGAACUGCCUCUUUCCUGUUGUUGUUAAUGAAAAUGUCAGAAACCAGUUAUGUGAAUGAUCUCUCUGAAUCCUAAGGGCUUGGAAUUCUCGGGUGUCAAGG,-0.856
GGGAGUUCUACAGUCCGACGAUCCAAGUCCUGUGCUACACAUCGUAUGUACCGAAUCGGGGUUUGGGUUUGGGGUUUGGAAAGUAUUAUGUUACGCCGUUCGGAUCUGCACUUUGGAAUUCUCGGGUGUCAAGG,-1.72

# Study 4 — technique: protein-binding microarray; form: double-stranded DNA, one strand shown; medium: in vitro; concentration: 940 nM top; setting: 60-bp whole probe; with: salmon DNA 0.4 mg/ml; relative to: random background probes; reading: higher = stronger binding; shared flanks, not repeated: GCCTAGCAC … GTCTTGATTCGCTTGACGCTGCTG
# Target: Interferon regulatory factor 5, full length, phosphomimetic (IRF5, Homo sapiens, UniProt Q13568-2, residues 1-514, S451D/S453D/S456D/S462D)
Strand,fitted relative affinity [z-score]
CATCATTGCCTATTTTTCCCCGTGCTA,1.23
TTAGGTTTCGCTTCCGGTTAGTGCTAG,9.87
TCAGACATCTTCATCAAACTGTGCTAG,0.594
TTAGATATCGGGTATCGATTGGTGCTA,2.95
GACCGTTTCGGGTTTCGGGACGTGCTA,5.01
TTAGATCTAAGACTGGATTAGTGCTAG,-0.541
TCATAACTCATTCTCCAACTGTGCTAG,0.974
TTAGAATTCAGTTCCGATTAGTGCTAG,1.3
TACAGGTTCTCTTTTATTTTGTGCTAG,1.14
GACGGTTTCGGTCTCGGGATGTGCTAG,13.3
GACGATATCAGTCTCGATACGTGCTAG,2.83
GATGGTATCGGGTATCGGGACGTGCTA,7.02
TTAGGTATCGTCTATCGGTTAGTGCTA,4.32
GAAGGTATCGACTATCGGGACGTGCTA,3.7
TTAGTACTGGACTTTCGGTTAGTGCTA,2.36
GACGGTTGCGGGACTGGGGACGTGCTA,0.101
TCAACTTCGGCCTCTAGGACTGTGCTA,-0.124
TCATCATTCCAATTCTTACTGTGCTAG,1.24

# Study 5 — target: CCNF, cyclin fold, Cln2 fusion (human); technique: yeast growth competition, sequencing; medium: yeast; setting: strong parent motif; relative to: not given; reading: higher = stronger binding
# Starting sequence: PKMYT1 docking peptide (human); SFEPRNLLSLFED
Substitution,normalised enrichment score
SFEIRNLLSLFED [P4I],-0.385
SFEPRNLLSLEED [F11E],-1.93
SFEWRNLLSLFED [P4W],0.928
SQEPRNLLSLFED [F2Q],1.12
SGEPRNLLSLFED [F2G],0.327
SFEPRNLLSLCED [F11C],-0.676
SFEPRNLLSYFED [L10Y],1.88
SFEPANLLSLFED [R5A],-0.791
SFEPRNLLSLDED [F11D],0.276
SFEPRNLLSLMED [F11M],-0.335
SFEPRNLLSLFDD [E12D],0.347
SFEPRNLLSLRED [F11R],-1.11
TFEPRNLLSLFED [S1T],0.701
SFEPRNLLSQFED [L10Q],0.602
SFEPRNQLSLFED [L7Q],-1.38
PFEPRNLLSLFED [S1P],0.58
SFEPRNLLSLFEQ [D13Q],0.76
SREPRNLLSLFED [F2R],0.94
SFQPRNLLSLFED [E3Q],2.97
SFYPRNLLSLFED [E3Y],2.46
SFEPQNLLSLFED [R5Q],0.0379
SFEPFNLLSLFED [R5F],-0.806
WFEPRNLLSLFED [S1W],2.96

# Repeated from above (study 4):
Strand,fitted relative affinity [z-score]
TTAGATCTAAGACTGGATTAGTGCTAG,-0.541
GACGATATCAGTCTCGATACGTGCTAG,2.83
GACCGTTTCGGGTTTCGGGACGTGCTA,5.01
TTAGATATCGGGTATCGATTGGTGCTA,2.95
GACGGTTTCGGTCTCGGGATGTGCTAG,13.3
TTAGGTATCGTCTATCGGTTAGTGCTA,4.32
